Measured values collected from several papers.
Numbered parts are unrelated; each lists some results of a single study.

Series 1
Target: PABPC1L2, full length, GST fusion (mouse, UniProt A0ABA7IW68)
Technique: RNAcompete
Form: RNA
Sample: in vitro
Concentration: 20 nM
Setting: 7-mer, probes averaged, single round
Baseline: mean of 7-mers
Direction: higher = stronger binding
Target sequence (chain): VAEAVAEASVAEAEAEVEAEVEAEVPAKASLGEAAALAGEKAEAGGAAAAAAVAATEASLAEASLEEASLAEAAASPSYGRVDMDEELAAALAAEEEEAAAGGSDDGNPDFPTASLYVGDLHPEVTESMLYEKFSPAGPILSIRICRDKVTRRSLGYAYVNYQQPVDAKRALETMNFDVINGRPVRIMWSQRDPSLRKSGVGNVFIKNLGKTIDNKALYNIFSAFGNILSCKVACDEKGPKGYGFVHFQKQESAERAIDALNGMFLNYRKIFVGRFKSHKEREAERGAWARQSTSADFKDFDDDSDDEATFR
Oligonucleotide	7-mer Z-score
UAGCUUU	-0.264
UAUCAAC	-0.17
CGGCUAA	-0.104
GCUUUUA	-0.0156
CUAUAUU	-0.132
CGCCUCG	-0.367
UAUACCC	-0.403
UUGCCGU	-0.405
CGCAAAG	-0.113
GCCGCCG	-0.376
AACCACC	0.1
GUCAGGG	0.164
UAACGUG	-0.155
GCCAUCG	-0.253
AUGGCGG	0.215
GUAACCU	-0.204
CUUGGUU	-0.356
UAGCAUU	-0.05
CUUACGU	-0.311

Series 2
Target: Centromere-binding protein 1, full length, N-terminal tag (CBF1, Saccharomyces cerevisiae, UniProt P17106, residues 1-351)
Sequence of UniProt P17106 (whole entry, looked up): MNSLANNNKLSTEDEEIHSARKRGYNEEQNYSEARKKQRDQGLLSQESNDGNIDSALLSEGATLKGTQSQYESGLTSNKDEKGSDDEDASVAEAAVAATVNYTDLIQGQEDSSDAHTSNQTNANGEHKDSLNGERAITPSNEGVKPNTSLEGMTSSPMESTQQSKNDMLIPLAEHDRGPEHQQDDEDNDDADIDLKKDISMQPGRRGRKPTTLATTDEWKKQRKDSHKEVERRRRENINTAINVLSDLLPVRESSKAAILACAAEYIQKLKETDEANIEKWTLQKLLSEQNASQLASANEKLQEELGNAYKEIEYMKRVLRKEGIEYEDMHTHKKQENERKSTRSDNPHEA
Technique: protein-binding microarray
Form: double-stranded DNA, one strand shown
Sample: in vitro
Concentration: 0.8 µM
Setting: whole 60-bp probe, no competitor
Direction: higher = stronger binding
Oligonucleotide	fluorescence intensity [a.u.]
CCTAACTACTATAAGCACGTAAGATAGCTTCGTACAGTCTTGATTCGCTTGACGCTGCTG	524
CTAAGTGCTCATTGGCATGTGACAAGAATTGCGTTCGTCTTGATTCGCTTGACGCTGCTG	3740
CTACTTCTGTGCCATCACGGTACTCTCTTCTATTTCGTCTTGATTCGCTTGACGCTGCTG	565
GAATTATTCAAAGGTGGTGTTAATTAAGAATGATAGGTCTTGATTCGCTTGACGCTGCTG	580
CTATCAGAATATGAAAACGTGTCGAACGGGGATTTCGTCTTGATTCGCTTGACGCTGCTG	599
GAATCTGTGAAATATGTCACCTCGAACTTACCTTAGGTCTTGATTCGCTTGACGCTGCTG	499
CTAGAACCACTTGGTCAGGTGCGGTACGTAAAATTCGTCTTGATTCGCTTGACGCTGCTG	1320
GAAAGATACGATAGTCTCATGATGACTTTTTCTTAGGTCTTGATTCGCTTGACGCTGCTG	574
CTAGCGCGAGTTTCCCGGGTGATGGAGCAGTAATTCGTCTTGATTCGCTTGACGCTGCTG	523
CTAGATATAACTCATCACATGTTAAAGAACCCATTCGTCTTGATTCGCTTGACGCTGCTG	2780
GAAAAACGTCAACACCACCTCTACATTTCTTTTTAGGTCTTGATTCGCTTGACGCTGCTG	498
GAAAAATGAAAAGATCATGAGAAAAAAACAAAATAGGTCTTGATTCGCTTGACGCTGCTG	571
GAAAAGGTCCATGATCATCAGGATCAACTAATCTAGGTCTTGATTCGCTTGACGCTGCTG	517
CTAGCAGCACCGTTTCACATGTCCGTCTCTTTTTTCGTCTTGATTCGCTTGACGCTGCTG	560
GAATTTATCTCATACCACGAGAAAAAAAAATCATAGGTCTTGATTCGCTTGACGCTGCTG	656
CTAATAATGCTACAGGAGACCATAAGTGATAACTTCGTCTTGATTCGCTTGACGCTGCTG	513
CTATTTGCTCTTTATCACCACGCTTTTCCTCTCTTCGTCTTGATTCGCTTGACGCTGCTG	534
CTAGGGGAAGGCACAGGAGATACCCCCACTAAATTCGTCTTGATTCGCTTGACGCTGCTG	473
CTAGCTCCCTTTTCTGATCTGATGTTCTCACGCTTCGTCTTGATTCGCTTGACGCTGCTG	514
CTATATTTCTTACGTGGTGAAAATAAGATCTTATTCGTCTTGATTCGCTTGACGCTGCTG	561
GAAAAAGAGAGAGCACACACGTTATAAACTACCTAGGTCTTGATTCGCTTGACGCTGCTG	531

Series 3
Organism: Saccharomyces cerevisiae
Effect on: binding
Technique: competitive growth deep sequencing
Form: peptide
Strain: cyclin E1-Cln2 fusion strain
Setting: peptide tiling library
Direction: direction not given
Sequence	enrichment score
QNPCGSKACRRLFGPV	0.787
QYQVVDDIVSKLVFDF	0.61
HPESPPRKRLKSKGSD	3.51
LENIEPLQVSFAVLSS	1.53
GPVKLEFDVSDGAT	0.336
RTEALEQGGLPKKLIF	1.57
KVRRNLFNQELLSP	1.2
ESSQLTVQAEFDMSAI	0.533
YLYLLLTQSLWCRV	-0.399
VKRLNFRSEEME	-0.638
RQVRRDLFAF	-1.29
PHKTFRKLRLFDTPHT	-0.124
DVSERGYVILPNDYFE	0.686
EHCRVLFLDHVMYTIH	-0.575

Series 4
Target: Histone acetyltransferase KAT6A, winged helix 1, GST fusion (KAT6A, Homo sapiens, UniProt Q92794, residues 1-85)
Technique: protein binding microarray
Form: double-stranded DNA, one strand shown
Sample: in vitro
Concentration: not given
Setting: 8-mer, flanks averaged, mean of 2 arrays, mostly near background
Baseline: not given
Direction: higher = stronger binding
Target sequence (chain): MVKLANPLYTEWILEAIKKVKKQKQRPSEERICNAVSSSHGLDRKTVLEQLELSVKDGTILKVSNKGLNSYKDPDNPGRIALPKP
Oligonucleotide	E-score
GTCGAGCA	-0.144
ATCACCTA	-0.274
ATCAACAC	-0.104
GCAATTTA	-0.0595
CTCAAGCA	-0.269
AGCCAACA	-0.0353
AGCTACCA	-0.205
GCCTGTAC	0.0521
GCCTCTGA	-0.215
AATGATGC	0.00409
ACCACCTC	-0.208
TAAATGGA	-0.185
TTATAGAA	-0.223
AACGTAAG	-0.169
GTGAGTAA	-0.157
CAAACTGA	-0.0844
ACTCGTCA	-0.0502
GAGAGTGC	0.00873

Series 5
Target: RNA binding protein fox-1 homolog 2, RRM domain, GST-SBP tag (RBFOX2, Homo sapiens, UniProt O43251-10, residues 100-194)
Technique: RNA Bind-n-Seq
Form: RNA
Sample: in vitro
Concentration: 365 nM
Setting: natural RNA segment, single round, ends assumed
Baseline: no-protein control
Direction: higher = stronger binding
Target sequence (chain): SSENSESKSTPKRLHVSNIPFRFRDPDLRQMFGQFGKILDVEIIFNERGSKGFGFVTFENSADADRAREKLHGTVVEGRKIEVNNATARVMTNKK
Oligonucleotide	RBNS enrichment (R)
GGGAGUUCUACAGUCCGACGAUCCAGGAGGCAUCAAGCCUCUAAAGAAUGUCUCACCUCCUCUGCCCAAAAAUGAUGCCUUUCUGUAGGCUGGUGUUGUUGCCUCCCUCCCAGGAUCCCUUUGGUGAGUAUGGUGGAAUUCUCGGGUGCCAA	0.468
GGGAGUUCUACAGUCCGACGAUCUCAUGUACAUAUGGUAUAGAAACCAUGGAGUUAGGCACUUCCUGGAUUUUUUUUUUAUGAGAAAAAUACUGUAUUUAAAAUGUAAAAUAAACUUUUAAAAAGCAGGCACUUGGAAUUCUCGGGUGCCAA	0.827
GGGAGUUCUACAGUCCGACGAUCGCCACAGACAGACAGAUGAUGAGGAAGAGACACAUGAAGAAUAGCCUCCCUCCCACCAUCCCAGAAAGGCUCAGGGCAGCCGUGAUCCUCCUAGGGUCACAGUCGGUCAGUGGAAUUCUCGGGUGCCAA	0.202
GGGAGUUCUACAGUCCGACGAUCGUUGUCAAACUUGCAAGCAUUUAUUUGUCUUUAUGACUGUCAUGGGGACUGAGGUUCUUCAGAGAAAGAGUGUGAGCUGAUGACACAGUGGUUUUACACCCACCCCCUGGUGGAAUUCUCGGGUGCCAA	0.76
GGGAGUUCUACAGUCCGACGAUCGGGUUGGGCGUGCUACCUGCACCGCCCCUUCUCCAACAAGUUGCCUCCAAGCUUUGGGUUGGAGCUGUUCCAUUGGGUCCUCUUGGUGUCGUUUCCCUCCCAACAGAGCUUGGAAUUCUCGGGUGCCAA	0.205
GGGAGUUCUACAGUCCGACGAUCUCAAAGUACUAAAAAAUGUACUAGAUCAUUAAGACUUAUGUGCUCUUACUGAUUGAAAGAUUUUUUAUGUUUUCCUUGUAAUAAAGGACCUAAACCGAAGGUACCUGAGAUGGAAUUCUCGGGUGCCAA	0.636
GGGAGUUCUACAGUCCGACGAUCCAUGGAAUAAAGGAAAGUUUACUCUUCUGAUUAUAAGCUGAGGAUGCUAUGUUGCAGUUUGUUUGCUUGUUUUUUUCUUCUGAGCUUUGUUUCUAGUACACGAUAUGACGUGGAAUUCUCGGGUGCCAA	1.48
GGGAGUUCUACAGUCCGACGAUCCUUUUGGAAUUUUCCACAGGUACCUGUACAACUUGAUAUUUGAAAACAGGAUUCAUCACCAUAUAUCCCCAGCCCCCGUUUUCUUUUUAAACAGGCCUCAUUGCGUAAUUUGGAAUUCUCGGGUGCCAA	0.506
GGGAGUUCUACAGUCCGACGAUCGGUGUGCAAGGCCGAGUGAUGGCUGAUCAAUCAAAGCCGUGGUCUAGGACCAGCUCCCACGUGCCAUUUACUGCUUUCUUCACCCUCCUCAUCUGGAGUUUGAUGGUUUAUGGAAUUCUCGGGUGCCAA	0.498
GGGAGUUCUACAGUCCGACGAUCCCCCAGUCAUUGCUGUCUGCAAGUGAUGCGCAUUUAAGUGUUUAAUCUCCUGGGAGCAGGGCACAGGGAAGACUAUGAGGAGAGCUAAUGUGGUCUGUACAAGGACACUGUGGAAUUCUCGGGUGCCAA	0.467
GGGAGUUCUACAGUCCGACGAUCAGUAGGGGCUCUUGAGAGUAUUGAAAGGCAGUGCUGCCUUUAUGCAGGAAGGUAUAAACCGGUUAUGCACAUUGGAGCCCUUUGCUUUCACCUUACAUUCUGGAUGCAUUUGGAAUUCUCGGGUGCCAA	0.374
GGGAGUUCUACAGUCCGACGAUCUACAGGGUUCAGUUUUGUAUAUUUUUUCAGCAAAUUUUUAUACAGUGUCAUUUAAUUUGGGAGAGGAUACUGUCCAGAAAAUUAAUGCAUACUUUUGUCACAAUUUGCCUUGGAAUUCUCGGGUGCCAA	0.521
